Measurements of several laboratories.
Each numbered part is a random draw from the data of one study; scales do not carry over between parts. Changes are numbered by the printed parent chain.

Study 1 — method: DHFR PCA, deep sequencing; sample: yeast; with: (+)-ABA 710 µM; baseline: wild-type fitted maximum; direction: higher = stronger binding; endpoint: relative binding score
Target: ABI1, truncated, D143A, DHFR fusion (Arabidopsis thaliana)
Setting: methotrexate growth selection, single substitutions
Starting sequence: PYL1, truncated, DHFR fusion (Arabidopsis thaliana); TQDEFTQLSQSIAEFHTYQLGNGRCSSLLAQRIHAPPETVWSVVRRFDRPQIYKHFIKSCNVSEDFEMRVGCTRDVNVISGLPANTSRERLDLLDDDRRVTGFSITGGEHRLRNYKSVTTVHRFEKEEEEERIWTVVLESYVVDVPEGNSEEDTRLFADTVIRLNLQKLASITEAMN
A13W: 93.9%
E89M: -1.3%
P146E: 47.6%
T120Y: 14.5%
F5T: 104%
R132C: 113%
H34R: 90.1%
H110K: 6.04%
E14L: 91.7%
V118I: 104%
D3S: 97.1%
C72Q: 105%
Q51A: 92%

Study 2 — method: universal PBM; molecule type: double-stranded DNA, one strand shown; sample: in vitro; concentration: not given; direction: higher = stronger binding; endpoint: E-score
Target: Sal-like protein 4, full length isoform B (SALL4, Homo sapiens, UniProt Q9UJQ4-2, residues 1-616)
Setting: 8-mer, flanks averaged, mean of replicates
Target sequence (chain): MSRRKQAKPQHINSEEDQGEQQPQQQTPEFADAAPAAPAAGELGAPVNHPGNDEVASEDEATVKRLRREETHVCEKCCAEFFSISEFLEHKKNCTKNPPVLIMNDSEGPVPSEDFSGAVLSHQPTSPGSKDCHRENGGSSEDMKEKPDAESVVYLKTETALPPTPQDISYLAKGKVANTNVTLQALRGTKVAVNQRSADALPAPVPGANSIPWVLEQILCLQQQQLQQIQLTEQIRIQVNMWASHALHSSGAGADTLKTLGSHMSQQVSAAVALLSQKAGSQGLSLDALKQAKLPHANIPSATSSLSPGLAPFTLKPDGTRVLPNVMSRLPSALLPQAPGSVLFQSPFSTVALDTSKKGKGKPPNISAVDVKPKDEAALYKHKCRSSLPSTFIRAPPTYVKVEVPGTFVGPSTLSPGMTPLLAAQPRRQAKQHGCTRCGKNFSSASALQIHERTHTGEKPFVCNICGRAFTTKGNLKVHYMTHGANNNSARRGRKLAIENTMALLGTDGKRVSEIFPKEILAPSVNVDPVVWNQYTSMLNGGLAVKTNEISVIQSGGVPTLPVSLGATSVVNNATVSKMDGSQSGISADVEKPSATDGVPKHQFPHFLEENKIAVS
CGAGAAAA: 0.0114
AAGGCGAT: 0.112
AGGGAGCA: -0.2
ACCTTCTG: -0.0323
CTCCGTTA: 0.0888
CGCCTAGA: -0.0907
CCATACCG: -0.0873
ATTTCACA: 0.276
CTTTTGCA: 0.0743
AATGTGAC: 0.0499

Study 3 — method: protein-binding microarray; molecule type: double-stranded DNA, one strand shown; sample: in vitro; concentration: 940 nM top; setting: 60-bp whole probe; with: salmon DNA 0.4 mg/ml; baseline: random background probes; direction: higher = stronger binding; endpoint: fitted relative affinity; constant ends, left off below: GCCTAGCAC … GTCTTGATTCGCTTGACGCTGCTG
Target: Interferon regulatory factor 5, full length, phosphomimetic (IRF5, Homo sapiens, UniProt Q13568-2, residues 1-514, S451D/S453D/S456D/S462D)
GCTGGTCACTCTCTGGGCTGGTGCTAG: 0.123 z-score
TTAGAACTGTGTATCGATTAGTGCTAG: 1.29 z-score
TTAGAACTGAGGTTCGATTAGTGCTAG: -0.281 z-score
GACGGTTTCCTAATCCTGACGTGCTAG: 0.682 z-score
GTCGGACTGGACTATCGGGACGTGCTA: -0.793 z-score
TTAGGACTGGACTATAGGTTAGTGCTA: -0.31 z-score
GACGGTCTCAGACTGGGGACGTGCTAG: -0.104 z-score
GACGAACTGAGTATCGAGTCGTGCTAG: 2.17 z-score
CTAGGTATCGGGTTTCGGTTAGTGCTA: 7.8 z-score
TCAATACTCGTTTACATACTGTGCTAG: 0.421 z-score
TCAAATTTTCATTTTCCACTGTGCTAG: 1.05 z-score
TTAGGTCTCGACACTGGGTTAGTGCTA: 1.24 z-score
TTAGGTATCCACTTTCGGTTAGTGCTA: 3.99 z-score
GACGATATCGGGTATCGACACGTGCTA: 1.37 z-score
GACAGACTGGGTCTCGGGACGTGCTAG: -0.146 z-score

Single results of other studies
PhoQ, residues 284 288 289 292 302 303 TLMATV  fold induction (PhoP, residues 12 14 15 18 19 VHSCL (Escherichia coli, UniProt P23836); Sort-seq, item: YFP reporter; E. coli; PhoQ-PhoP variant library, with: 10 µM Mg2+; baseline: high Mg2+ state, higher = stronger signaling): 4.48

Excerpt of the above (study 2):
CTCCGTTA: 0.0888
ACCTTCTG: -0.0323
